Measurements gathered from unrelated publications.
Each line is one published result; not all experiments were run side by side. ± gives the spread as reported.
Cell line: HCT-15

SMILES | observed | action | technique | time | notes | IC50
CCCC[N+]1=c2cc3c4cc2[O][Mn-2]1(=[C]=O)(=[C]=O)(=[C]=O)[n+]1ccc(cc1)C(=O)NCCNC(=O)c1cc[n+](cc1)[Mn-2](=[C]=O)(=[C]=O)(=[C]=O)([O]3)[N+]=4CCCC | cell growth |  | MTT | 48 h | LED light photolysis 1 h | 4.43 ± 0.62 µM
CNS(=O)(=O)Nc1nccc(Cc2c(C)c3ccc(Oc4ncccc4F)cc3oc2=O)c1F | cell viability |  |  | 7 days |  | > 1 µM
Cc1ccc(C(C)C)cc1.Cc1ccc(C(C)C)cc1.Cc1ccc(C(C)C)cc1.Cc1ccc(C(C)C)cc1.O=S(=O)(O)C(F)(F)F.O=S(=O)(O)C(F)(F)F.O=S(=O)(O)C(F)(F)F.O=S(=O)(O)C(F)(F)F.c1ccc2c3c4ccccc4c(c2c1)-c1cn(nn1)-c1cc[n+](cc1)[Ru-]1[O]C2=[O+][Ru-]([O]C2=[O+]1)[n+]1ccc(cc1)-n1cc(nn1)-c1c2ccccc2c(c2ccccc12)-c1cn(nn1)-c1cc[n+](cc1)[Ru-]1[O]C2=[O+][Ru-]([O]C2=[O+]1)[n+]1ccc(cc1)-n1cc-3nn1 | cell growth or viability |  | MTT | 24 h |  | > 20 µM
O=[C]=[Mn-2]12(=[C]=O)(=[C]=O)[O]c3cc4c(cc3=[N+]1CCc1ccccc1)[O][Mn-2](=[C]=O)(=[C]=O)(=[C]=O)([N+]=4CCc1ccccc1)[n+]1ccc(cc1)C(=O)OCCOC(=O)c1cc[n+]2cc1 | cell growth |  | MTT | 48 h | LED light photolysis 1 h | 2.03 ± 0.27 µM
Cc1ccc(C(C)C)cc1.Cc1ccc(C(C)C)cc1.Cc1ccc(C(C)C)cc1.Cc1ccc(C(C)C)cc1.O=S(=O)(O)C(F)(F)F.O=S(=O)(O)C(F)(F)F.O=S(=O)(O)C(F)(F)F.O=S(=O)(O)C(F)(F)F.c1ccc2c3c4ccccc4c(c2c1)-c1cn(nn1)-c1cc[n+](cc1)[Ru-]1[O]c2c4ccccc4c4c5c(c6ccccc6c(c25)=[O+]1)=[O+][Ru-]([O]4)[n+]1ccc(cc1)-n1cc(nn1)-c1c2ccccc2c(c2ccccc12)-c1cn(nn1)-c1cc[n+](cc1)[Ru-]1[O]c2c4ccccc4c4c5c(c6ccccc6c(c25)=[O+]1)=[O+][Ru-]([O]4)[n+]1ccc(cc1)-n1cc-3nn1 | cell growth |  | MTT | 24 h | 20 µM preincubated in medium 0 h at 37 °C | 7.1 ± 0.74 µM
Cn1ncc(-c2ccc3c(=O)[nH]nc(CN)c3c2)c1-c1c(F)c(Cl)cc(OC2CC2)c1C#N | cell viability | inhibitor | CellTiter-Glo | 120 h | baseline-subtracted | 3.7 µM
CC(=O)Oc1ccccc1C(=O)[O][Pt]([NH2])([NH2])([Cl])([Cl])[O]C(C)=O | cell growth or viability |  | MTT | 72 h |  | 4.53 µM
COc1cc(S(=O)(=O)Oc2ccc3[nH]c(C)cc3c2F)cc(OC)c1OC | cell growth or viability |  |  | 72 h |  | 0.00416 µM
CCCC[N+]1=c2cc3c4cc2[O][Mn-2]1(=[C]=O)(=[C]=O)(=[C]=O)[n+]1ccc(cc1)C(=O)OCCOCCOC(=O)c1cc[n+](cc1)[Mn-2](=[C]=O)(=[C]=O)(=[C]=O)([O]3)[N+]=4CCCC | cell growth |  | MTT | 48 h | LED light photolysis 1 h | > 50 µM
c1ccc2c(-c3cn(-c4ccncc4)nn3)c3ccccc3c(-c3cn(-c4ccncc4)nn3)c2c1 | cell growth or viability |  | MTT | 24 h |  | > 20 µM
CC(=O)[O][Pt]([NH2])([NH2])([Cl])([Cl])[O]C(=O)C(C)c1ccc(CC(C)C)cc1 (centres unmarked) | cell growth or viability |  | MTT | 72 h |  | 1.98 µM

Some of these lines once more:
SMILES | observed | action | technique | time | notes | IC50
CCCC[N+]1=c2cc3c4cc2[O][Mn-2]1(=[C]=O)(=[C]=O)(=[C]=O)[n+]1ccc(cc1)C(=O)NCCNC(=O)c1cc[n+](cc1)[Mn-2](=[C]=O)(=[C]=O)(=[C]=O)([O]3)[N+]=4CCCC | cell growth |  | MTT | 48 h | LED light photolysis 1 h | 4.43 ± 0.62 µM
